Measurements gathered from unrelated publications.
A part holds a random share of what one study measured.

Series 1
Target: RNA binding protein fox-1 homolog 2, RRM domain, GST-SBP tag (RBFOX2, Homo sapiens, UniProt O43251-10, residues 100-194)
Method: RNA Bind-n-Seq
Form: RNA
Sample: in vitro
Tested at: 365 nM
Notes: natural RNA segment, single round, ends assumed
Reference: no-protein control
Direction: higher = stronger binding
Quantity: RBNS enrichment (R)
Shared flanks, not repeated: GGGAGUUCUACAGUCCGACGAUC … UGGAAUUCUCGGGUGCCAA
Residues (chain): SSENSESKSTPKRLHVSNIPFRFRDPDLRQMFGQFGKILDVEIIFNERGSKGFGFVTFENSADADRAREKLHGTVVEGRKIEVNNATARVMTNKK
UUCUCCAAAGAAAUAUAAUUUUGGUUUUUGUUCCUCAGAGAGAGUUUGAAAGAAAUUUUCAGAUGUUCUGUUCCCUAUAGAGGGCCUAUUCCAGGAUCUAAAUGAAUGGG: 0.352
CUUUACGCAUCAGCUGCCUUAGACAGCUUCUAGAAAGGAGCGAGCGCUACUUCUUAAGUACUUAAGUGACAUUUAGAUAAUUUAUAGUAAAACUGAAAUUAUUAUUAGCC: 0.568
AGGUGCUGCUUUGUAUAUCAAAAGCUCCAACCAUGUCCUCUCCCCCUCAGCCUGUGGGUGGCACGAGCAAGGACUGACAUCCGCACAGGGAGGAUUGUCUGUUUGGCUGA: 0.401
CCUGCUUCAGCUACUGCCUCCUGUAUGCAUGAGCCGGAUGCUGGGCAGGAUCCCUGCCUACGCCCGGGCCCGAUUUGCGCUUUGCCGGACUGGAUGGAGUGGAGGAGGCC: 5.82
UCUGAUGUGGCAUUUUCGUCAUCUGAAGCAUGAGUGACAAGUUGGGAAUGAUGUGGUGAUUUAGAAUGCAGUAUUGGCCAAGUCCAAGUUGUCAACUUAAGCGUCUGUUU: 10.8
GCCCAAUAAUCCUCUCUUUUCUGCCAAGUCCUCAACCCAGAAAUGUAGGCUUCUGUGCACCACACGGCACAGCCCACUGAUUGCUGCCACCGGCUCUGUCUUGGUCAGUG: 0.643
UCAGGCCACGGUAAGCCCUUCCCAGCUGAGAUAUGGGUGGCAUAAUUUGAGUCUUCUGGCAACAUUUGGUGACCUACCCCAUAUCCAAUAUUUCCAGCGUUAGAUUGAGG: 0.463
UGCUCAGUUCCCAGGUGGUUGUGUGGGUGUGUGUGCGUGCAUGUGCCCGUCCGGUAAACUAUGGUCCUGGGUGCCCAGUUGUGCAGUAGGGGGAGAAGCUGAAAGAUAAG: 0.879
UCGACUUGAAUAUUAUCCCUAUGUAUUGCAUGAGAGGGGUCUCCCUCAUUCCAUCAGAGUAAUACACUUGCUUUAAUUCUUAAGCCUAAGUGAUACAAACAUGCCGAAUU: 1.44
AUUUUGGUAAGAAAAACAUCAAAGGUCCCCUUGGGAAUUUCAAAGGUUGGAAAUUAUACGUUUAUACUUUUAUUAGUUUGCUCCAAGUAUGACUGUGUUCACUUAAGUUU: 2.75
UUAUCCAGGCUACAUCAGGAGGUUGGACUUCAAUGCAGUGCAUUUCUAGAAACAGUUUGGUAAACAUAAAAGAGAGCAAGAUCAUUCUCGAUCUUCAUCCUCUUCAGCAU: 0.414
UUCCUUUUUGUCUCAGCAUAUAGUAUUAAGAUGCCUAGAAAUAGGACUCUAUUGUUCCCUCUUGUAUAGGCACUUUACAUUUCUUGUCACUACAGCAACCACAUACAGUA: 2.24

Series 2
Target: Ras GTPase-activating protein-binding protein 1, full length (G3BP1, Homo sapiens, UniProt Q13283)
Sequence of UniProt Q13283 (whole entry, looked up): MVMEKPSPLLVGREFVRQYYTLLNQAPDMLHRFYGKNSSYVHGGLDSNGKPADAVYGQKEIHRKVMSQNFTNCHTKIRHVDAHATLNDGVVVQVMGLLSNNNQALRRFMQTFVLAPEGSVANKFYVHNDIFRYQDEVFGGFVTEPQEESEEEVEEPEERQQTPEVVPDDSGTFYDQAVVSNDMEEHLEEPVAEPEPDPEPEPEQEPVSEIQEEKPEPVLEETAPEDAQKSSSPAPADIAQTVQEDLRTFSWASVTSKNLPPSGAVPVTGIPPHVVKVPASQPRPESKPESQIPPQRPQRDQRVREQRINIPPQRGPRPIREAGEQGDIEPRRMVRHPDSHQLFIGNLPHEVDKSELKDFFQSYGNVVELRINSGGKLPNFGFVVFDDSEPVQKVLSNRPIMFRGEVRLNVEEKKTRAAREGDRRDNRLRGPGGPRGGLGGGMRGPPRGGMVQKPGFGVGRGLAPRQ
Method: RNA Bind-n-Seq
Form: RNA
Sample: in vitro
Tested at: 200 nM
Notes: whole 134-nt RNA, ends assumed
Together with: 150 mM LiCl
Reference: input library
Direction: higher = stronger binding
Quantity: log2 enrichment
Library: 7-deaza-guanosine replaces G
Shared flanks, not repeated: GGGAGUUCUACAGUCCGACGAUC … UGGAAUUCUCGGGUGUCAAGG
AGUCCUGUGCUACACAUCGUAUGUACCGAAUCAAAUUUAAACCCCCCCAAACCCAAAAAAGUAUUAUGUUACGCCGUUCGGAUCUGCACU: 1.29
UCCAUGCAGGUGGGCAUCUUUGGGAAGUGGGGCAAGGGGGGGAUAGGGAGGGGGGUAACACUUUGGGAACAGGUGGUCCCAGGUCGUUUC: 0.356
AGUCCUGUGCUACACAUCGUAUGUACCGAAUCGGUUUUUGGGGUUUUUGGGUUUUUGGAAAGUAUUAUGUUACGCCGUUCGGAUCUGCAC: 0.188
UCCUGUGCUACACAUCGUAUGUACCGAAUCGGUUUUUUGGUUUUUUGGGGUUUUUUGGGGAAAGUAUUAUGUUACGCCGUUCGGAUCUGC: -0.38
CUCAAGUCCUGUGCUACACAUCGUAUGUACCGAAUCGGGGCGGGGCGGGCGGGGAAAGUAUUAUGUUACGCCGUUCGGAUCUGCACUUCC: -0.185
UAGAGACUUCAGAUGGAUUUUAAAAUUGAACACACUUGGGAUGGUUUUCCAGUGAAGCAUGAGCCCGUAUUUAUCAGGCUGAAUCCAGGU: -1.65
GUCCUGUGCUACACAUCGUAUGUACCGAAUCGGGGUGGGGUUUUUGGGGAAAAAGGGGAAAGUAUUAUGUUACGCCGUUCGGAUCUGCAC: 0.115
CUCAAGUCCUGUGCUACACAUCGUAUGUACCGAAUCGGUGGUUUUUUUGGUGGAAAGUAUUAUGUUACGCCGUUCGGAUCUGCACUUCCA: 1.16
AAGUCCUGUGCUACACAUCGUAUGUACCGAAUCGGAAAGGAAAAAGGUUUUUUUGGAAAGUAUUAUGUUACGCCGUUCGGAUCUGCACUU: -1.59
GUCCUGUGCUACACAUCGUAUGUACCGAAUCGGGGUGGGGAAAGGGGAAAAAAAGGGGAAAGUAUUAUGUUACGCCGUUCGGAUCUGCAC: 0.457
AAGUCCUGUGCUACACAUCGUAUGUACCGAAUCGGGGUUUUGGGUUUUGGGUUUUGGAAAGUAUUAUGUUACGCCGUUCGGAUCUGCACU: 0.151

Series 3
Target: Interferon regulatory factor 3, full length, phosphomimetic (IRF3, Homo sapiens, UniProt Q14653, residues 1-427, S386D/S396D/S398D/S402D/T404D/S405D)
Sequence of UniProt Q14653 (whole entry, unmodified, looked up): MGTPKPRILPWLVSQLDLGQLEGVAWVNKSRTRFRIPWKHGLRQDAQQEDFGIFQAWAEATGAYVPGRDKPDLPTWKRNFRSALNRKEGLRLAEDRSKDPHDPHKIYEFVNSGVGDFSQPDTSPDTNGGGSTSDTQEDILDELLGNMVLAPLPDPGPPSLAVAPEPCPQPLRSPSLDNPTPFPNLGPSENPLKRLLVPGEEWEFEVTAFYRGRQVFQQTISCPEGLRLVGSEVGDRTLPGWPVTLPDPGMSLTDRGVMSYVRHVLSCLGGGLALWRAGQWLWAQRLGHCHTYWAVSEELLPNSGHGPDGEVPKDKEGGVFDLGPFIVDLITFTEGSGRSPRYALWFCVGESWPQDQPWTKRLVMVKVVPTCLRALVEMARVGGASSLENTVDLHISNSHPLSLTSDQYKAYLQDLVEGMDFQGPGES
Method: protein-binding microarray
Form: double-stranded DNA, one strand shown
Sample: in vitro
Tested at: 2540 nM top
Notes: 60-bp whole probe
Together with: salmon DNA 0.4 mg/ml
Reference: random background probes
Direction: higher = stronger binding
Quantity: fitted relative affinity
Shared flanks, not repeated: GCCTAGCAC … GTCTTGATTCGCTTGACGCTGCTG
TTAGGACTGGGTATCAGTTAGTGCTAG: -0.0309 z-score
TCATCTTTAACATATTCTACTGTGCTA: 1.08 z-score
TTAGGGTTCCTTCTCCTTTAGTGCTAG: 5.28 z-score
GTAGGTTTCGGTCTCGGTTAGTGCTAG: 8.26 z-score
GACGGTCTCGGTCTCGAGACGTGCTAG: 1.59 z-score
TCATATGTCCTGTCTACAACTGTGCTA: 0.989 z-score
TTAGATCTCAGCTTCGATTAGTGCTAG: 0.167 z-score
GACGGACTGCTTATGCTGACGTGCTAG: -0.572 z-score
TACGGTCTCGGTTTCGGGACGTGCTAG: 4.01 z-score
GACGATATCGGGACTGGACACGTGCTA: 0.13 z-score
GACGGACTGTTTCTCCTGACGTGCTAG: 1.16 z-score
TCAAAAATCCCATTAAAACTGTGCTAG: 0.864 z-score
GCCGGTTTCGACACTGGGGACGTGCTA: 3.69 z-score
TTAAATTTCAGACTGGATTAGTGCTAG: 0.629 z-score
TCATAACTCATTTTCATACTGTGCTAG: 1.47 z-score
TCATGTTTGGGCATTTTTACTGTGCTA: -0.281 z-score

Series 4
Target: Prothrombin, mature alpha-thrombin (F2, Homo sapiens, UniProt P00734)
Method: aptamer microarray, sandwich
Form: DNA with 2'F-ANA
Sample: in vitro
Tested at: 200 nM
Notes: whole 15-mer aptamer, many near background
Together with: Cy3 exosite-II aptamer, 400 nM
Direction: higher = stronger binding
Quantity: mean fluorescence intensity
Strand: GGTTGGTGTGGTTGG
2'F-ANA at 2 4 5 7 10 11 12 13 15: 49.7 a.u.
2'F-ANA at 4 5 6 8 9 12 13: 91.1 a.u.
2'F-ANA at 2 3 7 9 10 11 12 13: 401 a.u.
2'F-ANA at 1 2 3 4 5 6 7 9 10 11: 56.3 a.u.
2'F-ANA at 1 2 4 6 7 8 12 13 15: 207 a.u.
2'F-ANA at 2 3 5 9 13 14 15: 48.6 a.u.
2'F-ANA at 1 2 3 4 5 10 13 15: 48.1 a.u.
2'F-ANA at 1 7: 223 a.u.
2'F-ANA at 1 5 7 8 9 11 14 15: 56.7 a.u.
2'F-ANA at 2 3 4 6 7 8 11 13: 436 a.u.
2'F-ANA at 1 5 7 8 10 11 12 14 15: 47.6 a.u.
2'F-ANA at 2 3 10 14 15: 341 a.u.
2'F-ANA at 1 3 4 5 7 10 12 13 14 15: 58.7 a.u.
2'F-ANA at 4 7 11 12 14: 142 a.u.
2'F-ANA at 4 5 9 10 12: 55.5 a.u.
2'F-ANA at 2 5 6 8 9 10 13: 48.4 a.u.
2'F-ANA at 2 3 4 6 7 12: 843 a.u.
2'F-ANA at 2 9 10: 231 a.u.
2'F-ANA at 1 5 9 10 11 12 13 15: 47.9 a.u.
2'F-ANA at 1 4 5 7 8 9: 66.7 a.u.
2'F-ANA at 3 4 6 7 10 11 13 15: 194 a.u.
2'F-ANA at 3 9 11 12 13 14: 700 a.u.

Series 5
Target: Histone acetyltransferase KAT6A, both winged helices, GST fusion (KAT6A, Homo sapiens, UniProt Q92794, residues 1-181)
Method: protein binding microarray
Form: double-stranded DNA, one strand shown
Sample: in vitro
Tested at: not given
Notes: 8-mer, flanks averaged, mean of 2 arrays, mostly near background
Reference: not given
Direction: higher = stronger binding
Quantity: E-score
Construct (chain): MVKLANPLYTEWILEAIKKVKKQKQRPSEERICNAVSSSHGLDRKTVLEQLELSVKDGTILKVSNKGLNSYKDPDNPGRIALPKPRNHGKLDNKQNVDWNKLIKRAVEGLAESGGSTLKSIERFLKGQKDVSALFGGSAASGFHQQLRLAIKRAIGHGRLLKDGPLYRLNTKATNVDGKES
AGTATATA: 0.0327
CAAAGAGA: -0.0306
CCGTCACG: 0.285
CAGAAGCA: -0.215
AAGTCATA: -0.13
CTACAGCC: -0.121
CGTGTATC: 0.12
GAGTTTGA: 0.008
AAGCGTTG: 0.0789
ACAACCTG: -0.267
ATCTCCGC: 0.0757
AGTCATGC: 0.0565
AGAGTGAG: -0.32
CATACCCA: -0.242
CACTTGAC: -0.0287
GTAGTATA: 0.105
GGAGGGCC: -0.0901
TAAAGTTA: -0.0202
GATCCCTA: -0.124
GACGCACC: 0.138
GACTTCCA: -0.15
CCTAAGTC: -0.178
ATCGACTC: -0.172
AATTCTGT: -0.0214

A few entries again (series 1):
UGCUCAGUUCCCAGGUGGUUGUGUGGGUGUGUGUGCGUGCAUGUGCCCGUCCGGUAAACUAUGGUCCUGGGUGCCCAGUUGUGCAGUAGGGGGAGAAGCUGAAAGAUAAG: 0.879
AGGUGCUGCUUUGUAUAUCAAAAGCUCCAACCAUGUCCUCUCCCCCUCAGCCUGUGGGUGGCACGAGCAAGGACUGACAUCCGCACAGGGAGGAUUGUCUGUUUGGCUGA: 0.401
UUCUCCAAAGAAAUAUAAUUUUGGUUUUUGUUCCUCAGAGAGAGUUUGAAAGAAAUUUUCAGAUGUUCUGUUCCCUAUAGAGGGCCUAUUCCAGGAUCUAAAUGAAUGGG: 0.352
AUUUUGGUAAGAAAAACAUCAAAGGUCCCCUUGGGAAUUUCAAAGGUUGGAAAUUAUACGUUUAUACUUUUAUUAGUUUGCUCCAAGUAUGACUGUGUUCACUUAAGUUU: 2.75
CUUUACGCAUCAGCUGCCUUAGACAGCUUCUAGAAAGGAGCGAGCGCUACUUCUUAAGUACUUAAGUGACAUUUAGAUAAUUUAUAGUAAAACUGAAAUUAUUAUUAGCC: 0.568
